Results gathered from unrelated publications.
Several values in a cell are separate wells, animals, samples, runs or records. Numbers after ± are the reported error.
OPG122: mRNA-decapping protein OPG122 (OPG122, Vaccinia virus, UniProt P04312)
Replicase polyprotein 1a papain-like protease: Replicase polyprotein 1a, papain-like protease (Severe acute respiratory syndrome coronavirus 2, UniProt P0DTC1)
bglR: Beta-glucuronidase (bglR, Clostridium perfringens, UniProt Q8XP19)

SMILES | target | test | system | conditions | IC50
Nc1ncnc2c1ncn2C1OC(COP(=O)(O)OP(=O)(O)O)C(O)C1O (stereo not drawn) | OPG122 | – | – | – | 188 µM
CCC(C(=O)Nc1ccccc1F)n1c(SCc2ccc(F)cc2)nc2ncccc21 (stereo not drawn) | Replicase polyprotein 1ab, papain-like protease (rep, Middle East respiratory syndrome-related coronavirus, UniProt K9N7C7) | enzyme activity, inhibitor | – | – | > 100 µM
CC(C)C[C@@H]1NC(=O)[C@H](CCCCN)NC(=O)[C@@H]2CSSC[C@H](N)C(=O)N[C@@H](CC(C)C)C(=O)NCC(=O)N[C@@H](Cc3ccccc3)C(=O)NCC(=O)N[C@@H](CCC(=O)O)C(=O)N[C@@H](CCCCN)C(=O)N[C@H]3CSSC[C@H](NC(=O)[C@H](C(C)C)NC1=O)C(=O)N[C@@H](CO)C(=O)N[C@@H](CCC(N)=O)C(=O)N[C@@H](Cc1c[nH]cn1)C(=O)N[C@@H](CCCCN)C(=O)N[C@@H](Cc1c[nH]c4ccccc14)C(=O)N[C@H](C(=O)N[C@@H](CCCCN)C(=O)N[C@@H](Cc1ccc(O)cc1)C(=O)O)CSSC[C@H](NC(=O)[C@H](CCCCN)NC(=O)[C@H](CC(=O)O)NC(=O)[C@H](CC(N)=O)NC3=O)C(=O)N2 | SCN9A (Homo sapiens, UniProt Q15858) | ion current, inhibitor, patch clamp | – | – | 8.89 µM
CCCc1ccc(Oc2cccc(CBr)c2)c(O)c1 | enoyl-ACP reductase (Bacillus anthracis, UniProt A0A6L8PBX8) | – | – | – | 20.3 ± 1.3 µM
Cc1ccc(N2CCN(C)CC2)cc1C(=O)NC1(c2ccc3c4c(cccc24)CC3)CC1 | Replicase polyprotein 1a papain-like protease | cell-free assay | – | – | 0.0182 µM
Nc1ccc(Cl)cc1C(=O)NC(COCP(=O)(O)OP(=O)(O)OP(=O)(O)O)Cn1cnc2c(N)ncnc21 (stereo not drawn) | cya (Bacillus anthracis, UniProt P40136) | – | – | – | 0.069 µM and 0.0689 µM
CC1=C(C(=O)Nc2ccc(F)cc2)C(c2ccccc2Cl)NC(=S)N1 (stereo not drawn) | Angiotensin-converting enzyme 2, with SARS-CoV-2 spike RBD (ACE2, Homo sapiens, UniProt Q9BYF1) | inhibitor | – | – | ~0.0125 µM and 0.0125 µM
CC(C)C[C@@H]1NC(=O)[C@H](CCCNC(=N)N)NC(=O)[C@@H]2CCCN2C(=O)[C@@H]2CSSC[C@H](NC(=O)CNC(=O)[C@@H]3CCCN3C(=O)[C@H](CCCCN)NC(=O)[C@H](CC(=O)O)NC(=O)[C@@H](NC(=O)CN)C(C)C)C(=O)N[C@@H](CCCNC(=N)N)C(=O)N[C@@H](Cc3ccc(O)cc3)C(=O)N[C@@H](CC(C)C)C(=O)N[C@@H](Cc3ccccc3)C(=O)NCC(=O)NCC(=O)N[C@H]3CSSC[C@H](NC(=O)CNC1=O)C(=O)N[C@@H](CCCCN)C(=O)NCC(=O)N[C@@H](CCCCN)C(=O)NCC(=O)N[C@@H](Cc1c[nH]cn1)C(=O)N[C@@H](CC(=O)O)C(=O)N[C@@H](Cc1ccc(O)cc1)C(=O)N[C@H](C(=O)N[C@@H](C)C(=O)N[C@@H](Cc1c[nH]c4ccccc14)C(=O)N[C@@H](CC(=O)O)C(=O)NCC(=O)N[C@H](C(=O)N[C@@H](Cc1ccccc1)C(=O)N[C@@H](CO)C(=O)N[C@@H](CC(=O)O)C(=O)O)[C@@H](C)O)CSSC[C@H](NC(=O)[C@H](CC(=O)O)NC(=O)[C@H](CC(=O)O)NC(=O)[C@H](CC(=O)O)NC(=O)[C@H](CO)NC(=O)[C@H](CCCCN)NC3=O)C(=O)N2 | SCN4A (Homo sapiens, UniProt P35499) | peak sodium current, inhibitor, automated patch clamp | HEK293 | holding potential -100 mV, with: 0.1 % BSA | 2.29 µM
COc1cccc2[nH]c(C(=O)NC(CC(C)C)C(=O)NC(CC3CCCNC3=O)C(=O)COC(=O)c3c(C)cc(C)nc3C)cc12 (stereo not drawn) | Procathepsin L (CTSL, Homo sapiens, UniProt P07711) | enzyme activity, inhibitor | – | pH 5, with preincubation | 0.00017 µM
CC[C@H](C)[C@@H]1NC(=O)[C@@H]2CSSC[C@H](NC(=O)[C@H](CCCNC(=N)N)NC(=O)[C@@H]3CSSC[C@H](NC1=O)C(=O)N[C@@H]([C@@H](C)O)C(=O)N[C@@H](CCCNC(=N)N)C(=O)NCC(=O)N[C@@H](Cc1ccccc1)C(=O)N3)C(=O)N[C@@H](C)C(=O)N[C@H]1CSSC[C@H](NC(=O)[C@H](C(C)C)NC(=O)CNC(=O)[C@H](Cc3c[nH]cn3)NC(=O)[C@H](CC(C)C)NC1=O)C(=O)N[C@@H](CCCNC(=N)N)C(=O)N2 | Lethal factor (Bacillus anthracis, UniProt P15917) | enzyme activity, inhibitor | – | – | 0.971 ± 0.048 µM
O=C(O)c1ccccc1N=NC(=NNc1cc(S(=O)(=O)O)ccc1O)c1ccccc1 | Ba71V-97, DNA complex (African swine fever virus, UniProt P42494) | enzyme activity, inhibitor | – | – | 25.1 ± 1.3 µM
CC[C@H](C)[C@@H]1NC(=O)[C@H](CCCNC(=N)N)NC(=O)[C@H](CO)NC(=O)[C@H](CCC(=O)O)NC(=O)[C@H](CC(=O)O)NC(=O)CNC(=O)CNC(=O)[C@H]([C@@H](C)O)NC(=O)[C@H](Cc2ccccc2)NC(=O)[C@H](CO)NC(=O)[C@H]([C@@H](C)O)NC(=O)[C@H](C)NC(=O)[C@@H]2CSSC[C@@H](C(=O)N[C@@H](Cc3ccc(O)cc3)C(=O)N[C@@H](Cc3ccccc3)C(=O)N[C@H](C(=O)N[C@H](C(=O)NCC(=O)O)[C@@H](C)O)[C@@H](C)O)NC(=O)[C@H]([C@@H](C)O)NC(=O)[C@H](CSSC[C@H](NC(=O)[C@H](CCC(=O)O)NC(=O)[C@H](CO)NC(=O)[C@H](CCCCN)NC(=O)[C@H](Cc3ccc(O)cc3)NC(=O)[C@@H]3CCCN3C(=O)[C@H](Cc3ccccc3)NC(=O)[C@H](CCCCN)NC(=O)[C@H](CCCNC(=N)N)NC(=O)[C@H](CCCCN)NC(=O)[C@H](CCCCN)NC(=O)[C@H](Cc3ccc(O)cc3)NC(=O)[C@@H]3CCCN3C(=O)[C@@H](NC(=O)[C@H](CC(=O)O)NC(=O)[C@H](CCCCN)NC(=O)[C@H](CCCCN)NC(=O)[C@@H](NC(=O)[C@@H](NC(=O)[C@@H](N)CCC(=O)O)C(C)C)[C@@H](C)CC)[C@@H](C)O)C(=O)N[C@@H](CC(C)C)C(=O)N[C@@H](CCCCN)C(=O)N[C@@H](C)C(=O)N2)NC(=O)[C@H](CCCCN)NC(=O)[C@H](Cc2ccccc2)NC(=O)[C@H](Cc2ccccc2)NC(=O)CNC(=O)[C@@H]2CCCN2C(=O)[C@H](CCCCN)NC(=O)CNC(=O)[C@H](CCC(=O)O)NC(=O)[C@H](CCC(N)=O)NC1=O | KCNQ4 (Homo sapiens, UniProt P56696) | ion current, inhibitor, patch clamp | – | – | 2.5 µM
Nc1nc2c(ncn2C2CC(O)C(COP(=O)(O)OP(=O)(O)OP(=O)(O)O)O2)c(=O)[nH]1 (stereo not drawn) | OPG122 | – | – | – | 27 µM
Cc1ccc(N2CCNCC2)cc1C(=O)NC1(c2ccc3c4c(cccc24)CC3)CC1 | Replicase polyprotein 1a papain-like protease | enzyme activity, inhibitor | – | – | 0.021 µM
CCC(CC)O[C@@H]1C=C(C(=O)O)C[C@H](NCc2ccc(-c3cnccn3)cc2)[C@H]1NC(C)=O | Neuraminidase (NA, Influenza A virus, UniProt P03468) | enzyme activity, inhibitor | – | – | 4.5 µM
O=C(OC1Cc2c(O)cc(O)cc2OC1c1cc(O)c(O)c(O)c1)c1cc(O)c(O)c(O)c1 (single isomer, unassigned; (-)) | Nucleoprotein (Severe acute respiratory syndrome coronavirus 2, UniProt P0DTC9) | nucleoprotein-RNA binding, inhibitor, HTRF | – | with: RNA 50 nM | 0.68 ± 0.09 µM
Cc1cc(O)cc(O)c1C(=O)O[C@@H]1CC2=C(COC([C@@H]3O[C@@H]3C)=C2)C(=O)[C@]1(C)O | Neuraminidase (NA, Influenza A virus, UniProt Q6DPL2) | – | influenza A virus H5N1 | – | 164 ± 4.6 µM
C1CCc2c(c(N3CCOCC3)nc3sc4c(N5CCOCC5)nnnc4c23)C1 | bglR | – | – | – | > 100 µM
O=[N+]([O-])c1cc(C(F)(F)F)cc([N+](=O)[O-])c1NNC(=S)Nc1ccc(F)cc1 | Transcriptional activator VP30, with NP peptide (VP30, Zaire ebolavirus, UniProt Q05323) | – | Ebola virus | – | 26.9 µM
C1CCc2c(c(N3CCOCC3)nc3sc4c(N5CCNCC5)nnnc4c23)C1 | bglR | – | – | – | 0.06 ± 0.01 µM
Cn1cnc2c(ncn2C2OC(COP(=O)(O)OP(=O)(O)OP(=O)(O)O)C(O)C2O)c1=N (stereo not drawn) | OPG122 | – | – | – | 175 µM

Repeated from above:
SMILES | target | test | system | conditions | IC50
C1CCc2c(c(N3CCOCC3)nc3sc4c(N5CCNCC5)nnnc4c23)C1 | bglR | – | – | – | 0.06 ± 0.01 µM
